# Published values of several laboratories.
# Protocols differ between the studies behind these lines. “And” joins repeats or separate records; there may be more than shown. ± gives the spread as reported.
SMILES,cell line,test,system,conditions,IC50
Cc1cc(C)cc(COc2cc3c(cc2OCc2cc(C)cc(C)c2)C2CC(O)(Cc4cn(CCOCCOCCOCCOCC(=O)Nc5cccc6c5C(=O)N(C5CCC(=O)NC5=O)C6=O)nn4)CC(C)N2CC3)c1 (racemic),ASPC1,"cell growth or viability, MTT",,,1.05 µM
CC(=O)N[C@H](C(=O)N[C@@H](CCCNC(=N)N)C(=O)N[C@@H](CCCCN)C(=O)N[C@@H](CCCNC(=N)N)C(=O)NC(C)(C)C(=O)N[C@@H](CC(C)C)C(=O)N[C@@H](CCCNC(=N)N)C(=O)N[C@@H](CCCNC(=N)N)C(=O)N[C@@H](CC(C)C)C(=O)N[C@@H](CC(C)C)C(=O)N[C@@H](CCC(N)=O)C(=O)NC(C)(C)C(=O)N[C@@H](CCCNC(=N)N)C(=O)N[C@@H](CCC(=O)O)C(=O)N[C@@H](CC(C)C)C(=O)N[C@H](C(=O)N[C@@H](CCC(=O)O)C(N)=O)C(C)C)C(C)C,H1975 (EGFR L858R/T790M),"cell viability, ATP luminescence",,18 h,> 100 µM
Cc1sc2c(c1C)C(c1ccc(-c3cccc(NC(=O)c4cnn5cccnc45)c3)cc1)=N[C@@H](CC(N)=O)c1nnc(C)n1-2,THP-1,"cell growth or viability, ATP luminescence",,72 h,0.0068 µM
CC[C@H](C)[C@@H]([C@@H](CC(=O)N1CCC[C@H]1[C@H](OC)[C@@H](C)C(=O)N[C@H](C)[C@@H](O)c1ccccc1)OC)N(C)C(=O)[C@@H](NC(=O)[C@H](C(C)C)N(C)C(=O)OCc1ccc(NC(=O)[C@H](CCCNC(N)=O)NC(=O)[C@@H](NC(=O)CCCc2cn(CC(=O)N[C@@H](CCCCNC(=O)CC[C@H](NC(=O)c3ccc(NCc4cnc5nc(N)[nH]c(=O)c5n4)cc3)C(=O)O)C(=O)NCCCC[C@H]3NC(=O)[C@H](CCCCN)NC(=O)[C@H](CCCNC(N)=O)NC(=O)[C@H](Cc4ccc(O)cc4)NC(=O)[C@@H](NC(=O)[C@H](Cc4ccc5ccccc5c4)NC(=O)[C@H](CCCNC(=N)N)NC(=O)[C@@H](N)CCCNC(=N)N)CSSC[C@@H](C(=O)N[C@@H](CCCNC(=N)N)C(N)=O)NC(=O)[C@H](CCCNC(N)=O)NC(=O)[C@H](CCCNC(=N)N)NC(=O)[C@H](Cc4ccc(O)cc4)NC(=O)[C@@H]4CCCN4C3=O)nn2)C(C)C)cc1)C(C)C,4T1,"cell growth or viability, CCK-8",,,0.489 µM
CC(=O)N[C@H](C(=O)N[C@@H](CCCNC(=N)N)C(=O)N[C@@H](CCCCN)C(=O)N[C@@H](CCCNC(=N)N)C(=O)N[C@]1(C)CCCC=CCCC[C@@](C)(C(=O)N[C@@H](CC(C)C)C(=O)N[C@@H](CC(C)C)C(=O)N[C@@H](CCC(N)=O)C(=O)N[C@@H](CCC(=O)O)C(=O)N[C@@H](CCCNC(=N)N)C(=O)N[C@@H](CCC(=O)O)C(=O)N[C@@H](CC(C)C)C(=O)N[C@H](C(=O)N[C@@H](CCC(=O)O)C(N)=O)C(C)C)NC(=O)[C@H](CCCNC(=N)N)NC(=O)[C@H](CC(C)C)NC1=O)C(C)C,H1975 (EGFR L858R/T790M),"cell viability, ATP luminescence",,18 h,68.1 ± 6.03 µM
CC1CCC2C(C)C(OC(=O)CCC(=O)OC3C(C)OC(n4cc(F)c(=O)[nH]c4=O)C3OC(=O)CCC(=O)OC3OC4OC5(C)CCC6C(C)CCC(C3C)C46OO5)OC3OC4(C)CCC1C32OO4 (stereo not shown),MCF-10A,"cell growth or viability, CCK-8",,,8.47 µM
CC(=O)[O][Pt]([NH2])([NH2])([Cl])([Cl])[O]C(=O)C(Cl)Cl,C13* cisplatin-resistant ovarian,"cytotoxicity, MTT",,72 h,0.94 ± 0.2 µM
CCC1=C(C)C2=C(c3ccc(P(=NC4=[O+][Ru-]([Cl])[n+]5ccccc54)(c4ccccc4)c4ccccc4)cc3)c3c(C)c(CC)c(C)n3[B-](C)(C)[N+]2=C1C.Cc1ccc(C(C)C)cc1.Cl,MCF-10A,"cell growth or viability, MTT",,,66.9 µM
CC(=O)N[C@H](C(=O)N[C@@H](CCCNC(=N)N)C(=O)N[C@@H](CCCCN)C(=O)N[C@@H](CCCNC(=N)N)C(=O)N[C@H](C(=O)N[C@@H](CC(C)C)C(=O)N[C@@H](CCCNC(=N)N)C(=O)N[C@@H](CCCNC(=N)N)C(=O)N[C@]1(C)CCCC=CCCC[C@@](C)(C(=O)N[C@@H](CCCNC(=N)N)C(=O)N[C@@H](CCC(=O)O)C(=O)N[C@@H](CC(C)C)C(=O)N[C@H](C(=O)N[C@@H](CCC(=O)O)C(N)=O)C(C)C)NC(=O)[C@H](CCC(N)=O)NC(=O)[C@H](CC(C)C)NC1=O)[C@@H](C)O)C(C)C,H2030 (wild-type EGFR),"cell viability, ATP luminescence",,18 h,67.5 ± 7.32 µM
CC(C)C12OC1C1OC13C1(C)CCC4=C(COC4=O)C1CC1OC13C2OC(=O)CCCOC1OC(CO)C(O)C(O)C1O (stereo not shown),sensitive human cancer cell lines,"cell viability, XTT",,,0.47 µM
Cc1ccc(CC(=O)N2CCN(CC(OCc3ccc4ccccc4c3)c3ccc(Cl)cc3Cl)CC2)cc1 (stereo not shown),MDA-MB-468,"cell growth or viability, MTT",,24 h,25.1 µM
Cc1sc2c(c1C)C(c1ccc(NC(=O)c3cc([N+](=O)[O-])ccc3F)cc1)=N[C@@H](CC(=O)OC(C)(C)C)c1nnc(C)n1-2,SET-2,"cell growth or viability, ATP luminescence",,72 h,1.2e-05 µM
O=C(c1cc(Cc2n[nH]c(=O)c3ccccc23)ccc1F)N1CC(CNC2CC2)C1,human bone marrow progenitor cells,total colony formation,,14 days,0.101 µM
C1N2CN3CN1CP(C2)C3.COc1ccc(C(O)=CC(=O)c2ccc(C(C)(C)C)cc2)cc1.Cc1ccc(C(C)C)cc1.[Ru+2],MIA PaCa-2,cytotoxicity,,dark,0.34 µM
Cc1cc(Nc2nc(C[C@@]3(C(=O)O)CCN(Cc4cccc(Cl)c4F)[C@H](C)C3)cc(C)c2F)[nH]n1,SW756,"cell growth or viability, ATP luminescence",,5 days,> 10 µM
Cc1ccc(C(C)C)cc1.F[P-](F)(F)(F)(F)F.[Cl][Os+]1[N]2C=CC=c3ccc4c(c32)[N]1C=CC=4,B16-F10,"cell growth or viability, MTT",,,> 100 µM
CC(=O)N[C@H](C(=O)N[C@@H](CCCNC(=N)N)C(=O)N[C@@H](CCCCN)C(=O)N[C@@H](CCCNC(=N)N)C(=O)N[C@@]1(C)CCCC=CCCC[C@@](C)(C(=O)N[C@@H](CC(C)C)C(=O)N[C@@H](CCC(N)=O)C(=O)N[C@@H](CCC(=O)O)C(=O)N[C@@H](CCCNC(=N)N)C(=O)N[C@@H](CCC(=O)O)C(=O)N[C@@H](CC(C)C)C(=O)N[C@H](C(=O)N[C@@H](CCC(=O)O)C(N)=O)C(C)C)NC(=O)[C@H](CCCNC(=N)N)NC(=O)[C@H](CCCNC(=N)N)NC(=O)[C@H](CC(C)C)NC1=O)C(C)C,"H2030, wild-type EGFR",,,,53.4 µM and 37.1 µM
Cc1ccccc1/C=C/C(=O)N[C@@H](CO)C(=O)N[C@H](C(=O)N[C@H](Cc1ccccc1)C(=O)N[C@@H]1C(=O)N2[C@@H](CC(=O)O)C(=O)Nc3ccccc3[C@@]2(O)[C@@H]1O)[C@@H](C)O,HCT-116,,,,> 20 µM
CC(=O)Oc1cccc2c1C(=O)C=CC2=O,HFF-1,"cell growth or viability, MTT",,48 h,7.3 µM
Cc1ccc(C(C)C)cc1.Cc1ccc(C(C)C)cc1.Cc1ccc(C(C)C)cc1.Cc1ccc(C(C)C)cc1.O=S(=O)(O)C(F)(F)F.O=S(=O)(O)C(F)(F)F.O=S(=O)(O)C(F)(F)F.O=S(=O)(O)C(F)(F)F.c1ccc2c3c4ccccc4c(c2c1)-c1cn(nn1)-c1cc[n+](cc1)[Ru-]1[O]c2ccc4c5c(ccc(c25)=[O+]1)=[O+][Ru-]([O]4)[n+]1ccc(cc1)-n1cc(nn1)-c1c2ccccc2c(c2ccccc12)-c1cn(nn1)-c1cc[n+](cc1)[Ru-]1[O]c2ccc4c5c(ccc(c25)=[O+]1)=[O+][Ru-]([O]4)[n+]1ccc(cc1)-n1cc-3nn1,HCT-15,"cell growth or viability, MTT",,24 h,1.8 µM
CC(=O)N[C@H](C(=O)N[C@@H](CCCNC(=N)N)C(=O)N[C@@H](CCCCN)C(=O)N[C@@H](CCCNC(=N)N)C(=O)N[C@@]1(C)CCCC=CCCC[C@@](C)(C(=O)N[C@@H](CC(C)C)C(=O)N[C@@H](CCC(N)=O)C(=O)N[C@@H](CCC(=O)O)C(=O)N[C@@H](CCCNC(=N)N)C(=O)N[C@@H](CCC(=O)O)C(=O)N[C@@H](CC(C)C)C(=O)N[C@H](C(=O)N[C@@H](CCC(=O)O)C(N)=O)C(C)C)NC(=O)[C@H](CCCNC(=N)N)NC(=O)[C@H](CCCNC(=N)N)NC(=O)[C@H](CC(C)C)NC1=O)C(C)C,H2030 (wild-type EGFR),"cell viability, ATP luminescence",,18 h,11.3 ± 3.18 µM
Cc1cc(Oc2nc(N3CC[C@@H](c4ccncc4)C3)ncc2F)[nH]n1,SW-620,cell proliferation,colon cancer,,52.5 µM
CCOc1ccccc1-n1c(CN2CCNCC2)nc2ccccc2c1=O,ASPC1,cell growth or viability,,72 h,0.237 µM
CC(=O)N[C@H](C(=O)N[C@@H](CCCNC(=N)N)C(=O)N[C@@H](CCCCN)C(=O)N[C@@H](CCCNC(=N)N)C(=O)N[C@H](C(=O)N[C@@H](CC(C)C)C(=O)N[C@@H](CCCNC(=N)N)C(=O)N[C@@]1(C)CCCC=CCCC[C@@](C)(C(=O)N[C@@H](CCCNC(=N)N)C(=O)N[C@@H](CCC(=O)O)C(=O)N[C@@H](CC(C)C)C(=O)N[C@H](C(=O)N[C@@H](CCC(=O)O)C(N)=O)C(C)C)NC(=O)[C@H](CCC(N)=O)NC(=O)[C@H](CC(C)C)NC(=O)[C@H](CC(C)C)NC1=O)[C@@H](C)O)C(C)C,H1975 (EGFR L858R/T790M),"cell viability, ATP luminescence",,18 h,4.68 ± 1.31 µM
CC(C)C12OC1C1OC13C1(C)CCC4=C(COC4=O)C1CC1OC13C2OC(=O)CCC(=O)OC1OC(CO)C(O)C(O)C1O (stereo not shown),primary normal human cells,"cell viability, XTT",,,4.16 µM

# Excerpt of the above:
SMILES,cell line,test,system,conditions,IC50
Cc1sc2c(c1C)C(c1ccc(NC(=O)c3cc([N+](=O)[O-])ccc3F)cc1)=N[C@@H](CC(=O)OC(C)(C)C)c1nnc(C)n1-2,SET-2,"cell growth or viability, ATP luminescence",,72 h,1.2e-05 µM
CCC1=C(C)C2=C(c3ccc(P(=NC4=[O+][Ru-]([Cl])[n+]5ccccc54)(c4ccccc4)c4ccccc4)cc3)c3c(C)c(CC)c(C)n3[B-](C)(C)[N+]2=C1C.Cc1ccc(C(C)C)cc1.Cl,MCF-10A,"cell growth or viability, MTT",,,66.9 µM
